Published values pooled from the literature.
Several values in a cell are separate wells, animals, samples, runs or records.
rep main protease: Replicase polyprotein 1ab, main protease (rep, Severe acute respiratory syndrome coronavirus 2, UniProt P0DTD1)

Under “dry mouth TEAE, Mild severity”, `Cn1cnc(Cn2c(=O)[nH]/c(=N\c3cc4cn(C)nc4cc3Cl)n(Cc3cc(F)c(F)cc3F)c2=O)n1` is recorded as 0% (human, moderate renal impairment; oral, 375 mg).
The abdominal distension of `CC[C@H](C)[C@H](NC(=O)[C@H](CC(C)C)NC(=O)[C@H](Cc1c[nH]c2ccccc12)NC(=O)[C@H](CCC(N)=O)NC(=O)[C@@H](NC(=O)[C@H](Cc1ccccc1)NC(=O)[C@H](C)NC(=O)[C@H](CCCCNC(=O)COCCOCCNC(=O)COCCOCCNC(=O)CC[C@H](NC(=O)CCCCCCCCCCCCCCCCCCC(=O)O)C(=O)O)NC(=O)[C@H](CCC(N)=O)NC(=O)[C@H](C)NC(=O)[C@@H](NC(=O)[C@H](CCCCN)NC(=O)[C@H](CC(=O)O)NC(=O)[C@H](CC(C)C)NC(=O)C(C)(C)NC(=O)[C@@H](NC(=O)[C@H](CO)NC(=O)[C@H](Cc1ccc(O)cc1)NC(=O)[C@H](CC(=O)O)NC(=O)[C@H](CO)NC(=O)[C@@H](NC(=O)[C@H](Cc1ccccc1)NC(=O)[C@@H](NC(=O)CNC(=O)[C@H](CCC(=O)O)NC(=O)C(C)(C)NC(=O)[C@@H](N)Cc1ccc(O)cc1)[C@@H](C)O)[C@@H](C)O)[C@@H](C)CC)[C@@H](C)CC)C(C)C)C(=O)N[C@@H](C)C(=O)NCC(=O)NCC(=O)N1CCC[C@H]1C(=O)N[C@@H](CO)C(=O)N[C@@H](CO)C(=O)NCC(=O)N[C@@H](C)C(=O)N1CCC[C@H]1C(=O)N1CCC[C@H]1C(=O)N1CCC[C@H]1C(=O)N[C@@H](CO)C(N)=O` is reported as 50% (healthy human; 5.0 mg, single ascending dose).
The antigen-positive cells of `Nc1ncnc2c([C@@H]3N[C@H](CO)[C@@H](O)[C@H]3O)c[nH]c12` is reported as 0.119% and 0.9% (Marburg virus; antibody staining; HeLa, Musoke; 100 µM).
`FNCYFPLQSYGFQPT` has a responding donors of 8% (human CD4 T cells; AIM; peptide).
For `CC(=O)c1cc([N+](=O)[O-])c(Sc2cccc(Cl)c2Cl)s1`, the inhibition was -6.74% (rep main protease; viral replication, Gluc reporter; SARS-CoV-2; 20 µM).
`KPSKRSFIEDLLFNK` has a responding donors of 17% (human CD4 T cells; AIM; peptide).
`CN1C(=N)N[C@](C)(c2cc(NC(=O)c3ccc(F)cn3)ccc2F)CS1(=O)=O` has an inhibition of -0.782% (rep main protease; reporter gene (Gaussia luciferase), inhibitor; 20 µM).

Excerpt of the above:
Under “dry mouth TEAE, Mild severity”, `Cn1cnc(Cn2c(=O)[nH]/c(=N\c3cc4cn(C)nc4cc3Cl)n(Cc3cc(F)c(F)cc3F)c2=O)n1` is recorded as 0% (human, moderate renal impairment; oral, 375 mg).
